# Experimental data of several laboratories.
# Parts stem from different laboratories: compare values within a part only.

# Set 1
# Target: Histone acetyltransferase KAT6A, winged helix 1, GST fusion (KAT6A, Homo sapiens, UniProt Q92794, residues 1-85)
# Method: protein binding microarray
# Form: double-stranded DNA, one strand shown
# Matrix: in vitro
# Tested at: not given
# Setting: 8-mer, flanks averaged, mean of 2 arrays, mostly near background
# Reference: not given
# Direction: higher = stronger binding
# Target sequence (chain): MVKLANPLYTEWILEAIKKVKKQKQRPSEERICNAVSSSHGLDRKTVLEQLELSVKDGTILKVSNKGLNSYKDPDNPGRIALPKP
Strand,E-score
AGTTCAGC,-0.113
CGAAAGGA,-0.0396
CGCGGTAG,0.361
ACATTATC,0.00228
CCCTTAAC,-0.11
TGCCCACA,-0.147
CGCATAAA,0.0468
TGGCATAA,-0.261
CCCTACAA,-0.267
CACGCGGA,0.302
ATCCTTGA,-0.142
ACACGCCT,-0.0665
AGGAGATA,-0.173
CACCGGCC,0.32
AGTAGTAG,0.0988
AAACTAGG,-0.085
ACGCAAAT,0.0794
ATAACGAG,-0.201
ACTTCATC,-0.196
AACTTCCG,0.109
AACAAGAC,-0.193
ATATAAGC,-0.0514
TAACACGA,0.0836
AGTACTAA,-0.154
CACCCTAC,-0.139

# Set 2
# Target: RNA binding protein fox-1 homolog 2, RRM domain, GST-SBP tag (RBFOX2, Homo sapiens, UniProt O43251-10, residues 100-194)
# Method: RNA Bind-n-Seq
# Form: RNA
# Matrix: in vitro
# Tested at: 365 nM
# Setting: natural RNA segment, single round, ends assumed
# Reference: no-protein control
# Direction: higher = stronger binding
# All sequences stand within: GGGAGUUCUACAGUCCGACGAUC … UGGAAUUCUCGGGUGCCAA
# Construct (chain): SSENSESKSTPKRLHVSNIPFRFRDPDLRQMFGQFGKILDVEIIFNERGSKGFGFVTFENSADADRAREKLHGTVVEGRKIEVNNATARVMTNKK
Strand,RBNS enrichment (R)
CAUAUGGCUAGCACCAUGGACUAUAUAUACCCACUGACCGAUUUUCAUUAAAUUUUGUCUUAUAAACAUUGUUGGGUAAUUGAAGCUAUCUGUGUAAUAUUAAAAUAUAG,0.401
CAGAGUCUUCCUGGCCUUUUUCCCUCCACCUUUUUGUAGUUACUCGGGGGCUUACUUGUGCAGUACUAAAAUCAAAGGAGCUGGUUCUUCUUUUCUCCCAAUCUUUUCUU,0.53
UGGGAACCAGCAGACUGCAUUCCUAAUCUUCAUUAUGCCUGAGACUUGUCUUACAAUGUUACCUUUAAGUGAAUCACAUAAUUGUCUUUGGAACUUGGUCUCCCAACACU,0.395
UUUUAACUCUUGUCUUCUGUGAGUUUUCCGUCCUCUGUAGUCACGUGCCUGCACACCGUUCUCUCCACCCUGCCUCCUUCCCACAGCAGAAGCAGGGCUCCACCCAGGCC,1.09
CCUCUCUCCCUCUCCCCCUCAACAGAAGGAAGGCUAUCUGUUGUCAUUCUCUUCCUGGCCAGUAGGAGUGCUGCUGUGCAGGGUCACUGCCUGCCCUGCUCCCUCUCUGG,0.74
ACAGCUGCAGUGGACUCAUAAGUAAAAAGACCUCUUCCUUUGGCUUGGGGUACACCUUUGGAUGCUAUGGAAAUACGCAGUUUGGUUUCAGAAAAGAUUUAUUAGAAAAC,0.544
AGAGACGGGGUUUCACCACGUUGGCCAGGCUGGUCUUAAAUGACCCUCUUAUUUUUAACUUGGAUACCUGCUAUUCUGCCAAAAGACAAUUUCUAGAGUAGUUUUGAAUG,0.271
CAAGUUGUGGCUUAUUUUCCUGUUCCCUAAACCGAUCCCUAUUCCAUCAACAUGGCACCCUGCCUCAUUGGCUAAGUGUUAAGUGAUGGGCUUAUUCUUGAAAGCAGCUU,0.347

# Set 3
# Target: Sox, HMG box (Pigoraptor chileana)
# Method: Spec-seq
# Form: double-stranded DNA, one strand shown
# Matrix: in vitro
# Tested at: not given
# Setting: whole probe, mean of replicates
# Reference: not given
# Direction: lower = stronger binding
# All sequences stand within: GAGTCGTCTCGTCAGCAC … CCGTAGAGCACTCAGGTC
# Construct (chain): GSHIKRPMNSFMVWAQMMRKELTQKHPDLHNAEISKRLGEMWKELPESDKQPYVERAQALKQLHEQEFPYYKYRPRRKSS
Strand,relative binding energy
GGTAGTT,0.913 ln ratio
CATAATT,-0.539 ln ratio
AATAGTT,-2.43 ln ratio
GCGTGTT,0.623 ln ratio
CATCATA,0.199 ln ratio
GTAGGTT,1.39 ln ratio
CATGAGA,0.444 ln ratio
ACAAGTT,-1.09 ln ratio
TTTAGTT,0.0418 ln ratio
CATATGG,-0.0668 ln ratio
CATCCTG,0.846 ln ratio
CGGCGTT,1.65 ln ratio
CGCGGTT,0.649 ln ratio
CATTCTC,-1 ln ratio
CTCCGTT,0.723 ln ratio
CATGCCC,0.92 ln ratio
CATCCAA,0.0597 ln ratio
GCCGGTT,1.03 ln ratio
CATGGAT,0.734 ln ratio

# Set 4
# Target: Ras GTPase-activating protein-binding protein 1, full length (G3BP1, Homo sapiens, UniProt Q13283)
# UniProt Q13283, sequence (whole entry, looked up): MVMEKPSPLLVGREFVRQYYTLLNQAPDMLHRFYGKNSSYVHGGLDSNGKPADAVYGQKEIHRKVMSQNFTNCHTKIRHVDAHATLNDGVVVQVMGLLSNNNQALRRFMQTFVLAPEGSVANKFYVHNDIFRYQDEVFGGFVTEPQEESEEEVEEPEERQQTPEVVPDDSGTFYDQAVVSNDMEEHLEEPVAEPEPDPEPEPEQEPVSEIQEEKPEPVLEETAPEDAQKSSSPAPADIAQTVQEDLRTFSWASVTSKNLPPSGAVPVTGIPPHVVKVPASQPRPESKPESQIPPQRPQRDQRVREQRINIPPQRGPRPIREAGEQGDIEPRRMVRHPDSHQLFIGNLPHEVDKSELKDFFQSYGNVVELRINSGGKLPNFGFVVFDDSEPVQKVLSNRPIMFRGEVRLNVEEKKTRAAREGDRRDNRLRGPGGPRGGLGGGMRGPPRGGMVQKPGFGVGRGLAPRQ
# Method: RNA Bind-n-Seq
# Form: RNA
# Matrix: in vitro
# Tested at: 200 nM
# Setting: whole 134-nt RNA, ends assumed
# Together with: 150 mM LiCl
# Reference: input library
# Direction: higher = stronger binding
# Library: 7-deaza-guanosine replaces G
# All sequences stand within: GGGAGUUCUACAGUCCGACGAUC … UGGAAUUCUCGGGUGUCAAGG
Strand,log2 enrichment
CUCAAGUCCUGUGCUACACAUCGUAUGUACCGAAUCGGUUGGGUUGGUUGGGGAAAGUAUUAUGUUACGCCGUUCGGAUCUGCACUUCCA,0.248
CCUCAAGUCCUGUGCUACACAUCGUAUGUACCGAAUCGGGGUGGGGUGGUGGAAAGUAUUAUGUUACGCCGUUCGGAUCUGCACUUCCAG,-0.391
UCAAGUCCUGUGCUACACAUCGUAUGUACCGAAUCGGUUGGGGUUGGGUUGGGGAAAGUAUUAUGUUACGCCGUUCGGAUCUGCACUUCC,-0.0549
AGUCCUGUGCUACACAUCGUAUGUACCGAAUCGGGUUUUUGGGAAAGGGUUUUUGGGAAAGUAUUAUGUUACGCCGUUCGGAUCUGCACU,-2.12
CAAGUCCUGUGCUACACAUCGUAUGUACCGAAUCGGAAAAAGGAGGAAAAAAAGGAAAGUAUUAUGUUACGCCGUUCGGAUCUGCACUUC,-0.314
UCAAGUCCUGUGCUACACAUCGUAUGUACCGAAUCGGGUUUGGGUGGGAAAGGGAAAGUAUUAUGUUACGCCGUUCGGAUCUGCACUUCC,-0.942
CAAGUCCUGUGCUACACAUCGUAUGUACCGAAUCGGGGAAAGGAAAGGGAAAGGGGAAAGUAUUAUGUUACGCCGUUCGGAUCUGCACUU,-0.611
GCAGCAAGUAAAAACAAAUGGAAAUGCUUCGGAUAGUGGCAGGGGUGGGGGUUGCUAAGGAAAGGGUGGGAUGGGAGUGGGUAAAGAGUU,-0.105

# Repeated from above (set 1):
Strand,E-score
AAACTAGG,-0.085
ACGCAAAT,0.0794
ATAACGAG,-0.201
ACTTCATC,-0.196
AACTTCCG,0.109
AACAAGAC,-0.193
ATATAAGC,-0.0514
